{"data": "Results gathered from unrelated publications", "note": "Parts stem from different laboratories: compare values within a part only.", "sequence of UniProt Q92772 (whole entry, looked up)": "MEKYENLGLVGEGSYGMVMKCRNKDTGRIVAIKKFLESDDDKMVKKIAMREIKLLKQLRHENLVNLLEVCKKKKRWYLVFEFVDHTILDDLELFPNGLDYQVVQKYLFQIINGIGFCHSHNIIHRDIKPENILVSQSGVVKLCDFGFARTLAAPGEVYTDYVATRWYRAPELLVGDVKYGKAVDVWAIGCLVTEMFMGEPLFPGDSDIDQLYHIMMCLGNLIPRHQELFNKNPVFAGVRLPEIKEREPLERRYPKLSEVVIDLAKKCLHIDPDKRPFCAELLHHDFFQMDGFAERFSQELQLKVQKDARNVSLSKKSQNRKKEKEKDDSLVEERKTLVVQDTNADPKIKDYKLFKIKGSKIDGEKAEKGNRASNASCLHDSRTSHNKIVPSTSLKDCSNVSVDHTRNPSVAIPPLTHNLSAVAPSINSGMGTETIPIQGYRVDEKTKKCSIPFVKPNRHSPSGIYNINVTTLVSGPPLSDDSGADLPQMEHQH", "sequence of UniProt Q9BUB5 (whole entry, looked up)": "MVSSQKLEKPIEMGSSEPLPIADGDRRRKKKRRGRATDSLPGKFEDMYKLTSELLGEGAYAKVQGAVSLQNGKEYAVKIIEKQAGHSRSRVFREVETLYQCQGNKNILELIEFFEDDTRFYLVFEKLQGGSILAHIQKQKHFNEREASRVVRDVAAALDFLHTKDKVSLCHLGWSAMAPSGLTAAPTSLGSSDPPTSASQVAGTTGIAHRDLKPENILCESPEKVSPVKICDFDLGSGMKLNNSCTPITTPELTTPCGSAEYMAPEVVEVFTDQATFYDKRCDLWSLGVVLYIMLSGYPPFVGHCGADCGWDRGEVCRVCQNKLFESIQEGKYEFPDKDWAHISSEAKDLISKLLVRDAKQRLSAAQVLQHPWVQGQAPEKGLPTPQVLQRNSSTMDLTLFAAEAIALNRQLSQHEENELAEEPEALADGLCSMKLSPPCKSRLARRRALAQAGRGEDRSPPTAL", "sequence of UniProt Q8TDX7 (whole entry, looked up)": "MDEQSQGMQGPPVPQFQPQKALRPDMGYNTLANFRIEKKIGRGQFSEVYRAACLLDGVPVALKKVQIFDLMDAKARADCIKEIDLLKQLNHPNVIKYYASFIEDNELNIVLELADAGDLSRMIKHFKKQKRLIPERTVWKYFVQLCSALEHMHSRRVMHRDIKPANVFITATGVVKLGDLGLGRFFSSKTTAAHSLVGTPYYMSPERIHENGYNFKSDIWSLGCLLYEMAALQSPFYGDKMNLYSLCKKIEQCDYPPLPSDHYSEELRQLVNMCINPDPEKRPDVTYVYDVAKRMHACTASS", "sequence of UniProt Q16832 (whole entry, looked up)": "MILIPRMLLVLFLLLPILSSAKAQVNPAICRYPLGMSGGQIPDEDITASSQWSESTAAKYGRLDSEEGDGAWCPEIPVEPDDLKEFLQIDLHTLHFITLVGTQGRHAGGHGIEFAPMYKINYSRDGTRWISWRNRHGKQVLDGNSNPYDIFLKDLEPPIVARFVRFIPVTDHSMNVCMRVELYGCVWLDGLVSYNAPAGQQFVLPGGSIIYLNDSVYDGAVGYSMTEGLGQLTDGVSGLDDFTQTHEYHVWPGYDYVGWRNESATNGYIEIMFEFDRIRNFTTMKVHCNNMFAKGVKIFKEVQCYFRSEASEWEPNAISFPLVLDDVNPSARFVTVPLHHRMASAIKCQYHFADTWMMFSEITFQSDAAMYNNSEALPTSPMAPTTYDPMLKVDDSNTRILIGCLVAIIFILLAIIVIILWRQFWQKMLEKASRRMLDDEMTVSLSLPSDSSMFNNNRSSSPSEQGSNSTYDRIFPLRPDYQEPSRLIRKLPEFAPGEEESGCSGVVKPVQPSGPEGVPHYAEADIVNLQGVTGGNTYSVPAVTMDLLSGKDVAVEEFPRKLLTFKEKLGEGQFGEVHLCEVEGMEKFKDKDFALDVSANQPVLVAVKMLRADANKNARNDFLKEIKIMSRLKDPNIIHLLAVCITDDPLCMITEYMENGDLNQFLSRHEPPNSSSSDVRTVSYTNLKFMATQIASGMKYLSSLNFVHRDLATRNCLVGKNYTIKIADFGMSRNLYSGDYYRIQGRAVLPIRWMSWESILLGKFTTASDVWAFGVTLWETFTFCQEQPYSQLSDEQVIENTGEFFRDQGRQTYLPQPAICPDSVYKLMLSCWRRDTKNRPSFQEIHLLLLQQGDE", "sequence of UniProt P09619 (whole entry, looked up)": "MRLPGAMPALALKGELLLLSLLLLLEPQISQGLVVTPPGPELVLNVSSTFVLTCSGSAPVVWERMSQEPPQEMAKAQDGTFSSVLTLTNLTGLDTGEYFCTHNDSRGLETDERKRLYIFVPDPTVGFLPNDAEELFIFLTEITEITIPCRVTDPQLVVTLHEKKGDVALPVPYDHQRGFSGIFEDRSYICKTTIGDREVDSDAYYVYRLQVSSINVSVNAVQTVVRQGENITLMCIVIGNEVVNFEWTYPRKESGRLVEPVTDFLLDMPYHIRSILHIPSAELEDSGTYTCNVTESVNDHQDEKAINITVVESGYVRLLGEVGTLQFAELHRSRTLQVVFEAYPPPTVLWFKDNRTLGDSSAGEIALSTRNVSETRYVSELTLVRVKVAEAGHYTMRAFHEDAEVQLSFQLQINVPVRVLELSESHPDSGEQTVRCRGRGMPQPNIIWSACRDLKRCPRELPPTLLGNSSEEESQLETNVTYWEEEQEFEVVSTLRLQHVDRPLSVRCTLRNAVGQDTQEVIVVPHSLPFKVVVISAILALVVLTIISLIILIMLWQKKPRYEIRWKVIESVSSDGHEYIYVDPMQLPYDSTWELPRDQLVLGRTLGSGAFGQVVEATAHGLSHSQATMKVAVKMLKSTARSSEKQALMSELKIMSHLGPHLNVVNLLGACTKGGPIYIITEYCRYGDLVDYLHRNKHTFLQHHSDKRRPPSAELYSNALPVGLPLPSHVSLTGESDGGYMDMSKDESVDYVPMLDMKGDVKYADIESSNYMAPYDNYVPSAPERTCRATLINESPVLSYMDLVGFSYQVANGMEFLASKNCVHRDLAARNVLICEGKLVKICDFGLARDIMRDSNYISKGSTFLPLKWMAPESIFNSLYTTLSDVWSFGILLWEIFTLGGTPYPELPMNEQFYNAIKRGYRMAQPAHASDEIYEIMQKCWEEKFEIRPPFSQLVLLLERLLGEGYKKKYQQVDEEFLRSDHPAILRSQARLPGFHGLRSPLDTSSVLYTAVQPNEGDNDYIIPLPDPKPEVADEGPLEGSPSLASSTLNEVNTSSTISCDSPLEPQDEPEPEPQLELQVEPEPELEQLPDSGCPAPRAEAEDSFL", "sequence of UniProt P29376 (whole entry, looked up)": "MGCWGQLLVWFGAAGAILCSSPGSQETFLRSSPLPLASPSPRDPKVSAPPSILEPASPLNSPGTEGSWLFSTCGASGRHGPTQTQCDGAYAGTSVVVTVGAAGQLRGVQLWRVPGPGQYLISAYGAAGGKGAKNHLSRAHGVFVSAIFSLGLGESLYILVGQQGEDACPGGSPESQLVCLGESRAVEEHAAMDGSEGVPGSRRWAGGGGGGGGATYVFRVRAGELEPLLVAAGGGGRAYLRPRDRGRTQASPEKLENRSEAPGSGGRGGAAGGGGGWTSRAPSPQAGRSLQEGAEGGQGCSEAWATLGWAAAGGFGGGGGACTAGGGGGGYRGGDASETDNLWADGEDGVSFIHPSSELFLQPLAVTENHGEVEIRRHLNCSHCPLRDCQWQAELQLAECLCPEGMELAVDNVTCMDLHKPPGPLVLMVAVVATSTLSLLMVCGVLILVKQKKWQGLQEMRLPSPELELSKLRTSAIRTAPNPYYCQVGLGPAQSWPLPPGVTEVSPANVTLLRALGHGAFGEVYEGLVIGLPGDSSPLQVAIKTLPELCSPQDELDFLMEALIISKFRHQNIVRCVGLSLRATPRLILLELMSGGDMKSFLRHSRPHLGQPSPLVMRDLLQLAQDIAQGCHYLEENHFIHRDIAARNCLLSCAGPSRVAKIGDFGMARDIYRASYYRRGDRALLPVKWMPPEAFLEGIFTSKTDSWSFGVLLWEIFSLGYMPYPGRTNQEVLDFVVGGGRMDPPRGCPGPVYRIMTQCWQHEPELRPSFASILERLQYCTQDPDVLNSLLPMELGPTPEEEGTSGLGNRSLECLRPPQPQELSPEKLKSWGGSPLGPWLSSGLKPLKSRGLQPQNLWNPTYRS", "sequence of UniProt P06493 (whole entry, looked up)": "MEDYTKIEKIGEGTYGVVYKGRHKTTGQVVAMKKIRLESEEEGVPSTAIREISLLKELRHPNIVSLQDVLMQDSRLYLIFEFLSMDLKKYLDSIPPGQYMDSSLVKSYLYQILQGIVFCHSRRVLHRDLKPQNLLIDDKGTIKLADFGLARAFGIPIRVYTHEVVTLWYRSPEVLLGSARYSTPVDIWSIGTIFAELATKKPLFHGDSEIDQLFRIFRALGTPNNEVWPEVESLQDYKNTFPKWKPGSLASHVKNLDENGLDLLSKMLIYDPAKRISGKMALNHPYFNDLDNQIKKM"}
{"data": "Sample 1", "target": "Sal-like protein 4, full length isoform B (SALL4, Homo sapiens, UniProt Q9UJQ4-2, residues 1-616)", "technique": "universal PBM", "molecule type": "double-stranded DNA, one strand shown", "medium": "in vitro", "concentration": "not given", "setting": "8-mer, flanks averaged, mean of replicates", "reading": "higher = stronger binding"}
{"Strand": "CCGTGGAA", "E-score": -0.013}
{"Strand": "AGCCGCGC", "E-score": -0.296}
{"Strand": "GATCGAGA", "E-score": -0.0411}
{"Strand": "CTACATAA", "E-score": 0.149}
{"Strand": "CGGTCTGA", "E-score": -0.218}
{"Strand": "CGGCGTAC", "E-score": -0.314}
{"Strand": "AGGATTAG", "E-score": 0.0987}
{"Strand": "CCTACTTC", "E-score": -0.0828}
{"data": "Sample 2", "target": "Eukaryotic initiation factor 4A-I (EIF4A1, Homo sapiens, UniProt P60842, residues 1-406, full length assumed)", "technique": "RNA Bind-n-Seq", "molecule type": "RNA", "medium": "in vitro", "concentration": "90 pmol", "setting": "4-mer, random 30-nt RNA, single round", "with": "3 µM iPr-DMDA-PatA, 2 mM ADP, 2 mM phosphate", "reference": "input library", "reading": "higher = stronger binding", "sequence of UniProt P60842 (whole entry, looked up)": "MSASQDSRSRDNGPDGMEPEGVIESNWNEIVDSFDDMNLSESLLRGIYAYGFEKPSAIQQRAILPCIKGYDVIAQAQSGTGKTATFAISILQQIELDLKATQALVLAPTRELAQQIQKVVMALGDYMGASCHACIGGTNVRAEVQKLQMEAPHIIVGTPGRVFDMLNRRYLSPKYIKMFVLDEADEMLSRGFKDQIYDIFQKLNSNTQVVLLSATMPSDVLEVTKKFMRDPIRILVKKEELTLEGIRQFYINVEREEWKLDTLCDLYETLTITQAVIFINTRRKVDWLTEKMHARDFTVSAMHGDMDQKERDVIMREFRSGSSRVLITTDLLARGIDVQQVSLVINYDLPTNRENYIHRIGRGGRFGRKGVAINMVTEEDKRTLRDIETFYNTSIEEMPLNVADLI"}
{"Strand": "AGAC", "4-mer enrichment [fold]": 1.3}
{"Strand": "UCUG", "4-mer enrichment [fold]": 0.917}
{"Strand": "UACG", "4-mer enrichment [fold]": 1.02}
{"Strand": "CGUU", "4-mer enrichment [fold]": 0.888}
{"Strand": "CAAU", "4-mer enrichment [fold]": 1.14}
{"Strand": "GUUC", "4-mer enrichment [fold]": 0.922}
{"Strand": "UGGU", "4-mer enrichment [fold]": 0.85}
{"Strand": "CGAC", "4-mer enrichment [fold]": 1.09}
{"data": "Sample 3", "SMILES": "COc1ccc(COc2ccc(Cc3cnc(N)nc3N)cc2OC)cc1", "effect on": "enzyme activity", "mode": "inhibitor", "concentration": "0.5 µM", "reference": "control"}
{"target": "MAP4K4 (Homo sapiens, UniProt O95819)", "remaining activity [%]": 99}
{"target": "AXL (Homo sapiens, UniProt P30530)", "remaining activity [%]": 96.5}
{"target": "Cyclin-dependent kinase 1, with cyclin B (CDK1, Homo sapiens, UniProt P06493)", "remaining activity [%]": 91.3}
{"target": "STK16 (Homo sapiens, UniProt O75716)", "remaining activity [%]": 106}
{"target": "WNK3 (Homo sapiens, UniProt Q9BYP7)", "remaining activity [%]": 100}
{"target": "STK17A (Homo sapiens, UniProt Q9UEE5)", "remaining activity [%]": 102}
{"target": "EPHA4 (Homo sapiens, UniProt P54764)", "remaining activity [%]": 105}
{"data": "Sample 4", "Structure (SMILES)": "CC1=C(C#N)C(c2ccc3c(c2)c(NC(=O)c2ccccc2C)nn3C)C(C#N)=C(C)N1", "technique": "competition with immobilised ligand", "concentration": "1 µM"}
{"target": "NEK6 (Homo sapiens, UniProt Q9HC98)", "test": "cell-free assay", "remaining binding [%]": 100}
{"target": "MKNK1 (Homo sapiens, UniProt Q9BUB5)", "test": "cell-free assay", "remaining binding [%]": 70}
{"target": "PKN2 (Homo sapiens, UniProt Q16513)", "test": "cell-free assay", "remaining binding [%]": 100}
{"target": "FLT3 (Homo sapiens, UniProt P36888, D835V)", "test": "cell-free assay", "remaining binding [%]": 90}
{"target": "LTK (Homo sapiens, UniProt P29376)", "test": "cell-free assay", "remaining binding [%]": 70}
{"target": "Tyrosine-protein kinase ABL1, phosphorylated (ABL1, Homo sapiens, UniProt P00519)", "test": "cell-free assay", "remaining binding [%]": 66}
{"target": "CAMK2D (Homo sapiens, UniProt Q13557)", "test": "cell-free assay", "remaining binding [%]": 100}
{"target": "CDK2 (Homo sapiens, UniProt P24941)", "test": "cell-free assay", "remaining binding [%]": 86}
{"target": "DDR2 (Homo sapiens, UniProt Q16832)", "test": "cell-free assay", "remaining binding [%]": 86}
{"target": "IRAK3 (Homo sapiens, UniProt Q9Y616)", "test": "cell-free assay", "remaining binding [%]": 79}
{"target": "CDKL2 (Homo sapiens, UniProt Q92772)", "test": "binding", "remaining binding [%]": 100}
{"target": "PDGFRB (Homo sapiens, UniProt P09619)", "test": "cell-free assay", "remaining binding [%]": 94}
{"target": "NEK7 (Homo sapiens, UniProt Q8TDX7)", "test": "cell-free assay", "remaining binding [%]": 96}
{"target": "DSTYK (Homo sapiens, UniProt Q6XUX3)", "test": "cell-free assay", "remaining binding [%]": 72}
{"target": "BLK (Homo sapiens, UniProt P51451)", "test": "cell-free assay", "remaining binding [%]": 82}
{"target": "DCLK2 (Homo sapiens, UniProt Q8N568)", "test": "cell-free assay", "remaining binding [%]": 100}
{"target": "IKBKE (Homo sapiens, UniProt Q14164)", "test": "cell-free assay", "remaining binding [%]": 100}
{"note": "For quick reference, copied from above (sample 3):"}
{"target": "MAP4K4 (Homo sapiens, UniProt O95819)", "remaining activity [%]": 99}
{"target": "STK17A (Homo sapiens, UniProt Q9UEE5)", "remaining activity [%]": 102}
{"target": "AXL (Homo sapiens, UniProt P30530)", "remaining activity [%]": 96.5}
{"target": "EPHA4 (Homo sapiens, UniProt P54764)", "remaining activity [%]": 105}
